Published values of several laboratories.
Each line is one published result; not all experiments were run side by side. Values joined by “and” are separate records of one study, mostly repeats; a detail may differ. ± gives the spread as reported.

SMILES	target or system	assay	test system	setting	scale	measurement	result
O=C(CC1NCCCC1O)Cn1cnc2cc(Br)c(Cl)cc2c1=O (stereo not drawn)	mouse embryonic fibroblasts	ELISA	–	20 nM, 2 h	–	intracellular concentration	~800 nM
CC(c1ccccc1)(c1ccc(O)cc1)c1ccc(O)cc1	HepG2 spheroids, dissociated	annexin V-FITC/PI flow cytometry	–	0.1 µM, 24 h	–	late apoptotic cells	8.74 ± 1.17%
O=c1c(O[C@@H]2O[C@H](CO)[C@H](O)[C@H](O)[C@H]2O)c(-c2ccc(O)c(O)c2)oc2cc(O)cc(O)c12	Caco-2	CCK-8	–	1.25 µM, 24 h	–	viability	104%
Nc1c(C(=O)Nc2ccon2)sc2nc(-c3ccccc3)cc(C(F)(F)F)c12	MDA-MB-231	MTT	–	100 µM, 72 h	–	viability	15 ± 3%
Cc1oc(-c2cccc(Cl)c2)nc1CN1CCCC(C(=O)NCCc2ccc(Cl)cc2)C1 (stereo not drawn)	Vero E6	cytotoxicity, CellTiter-Glo	–	retest 8-point, no virus	–	AC50	14.1 µM
C=CCNC1=C2C[C@@H](C)C[C@H](OC)[C@H](O)[C@@H](C)/C=C(\C)[C@H](OC(N)=O)[C@@H](OC)/C=C\C=C(/C)C(=O)NC(=CC1=O)C2=O	ARPE-19 HiBiT-fibulin-3 knock-in	cell viability, CellTiter-Glo	–	1.66 µM, 48 h	baseline: vehicle	ATP level reduction	-9.89%
Cc1cc(C)c(C#N)c(SCC(=O)Nc2ccon2)n1	MDA-MB-231	MTT	–	100 µM, 72 h	–	viability	55 ± 7%
CC(C)CC(=O)OC[C@H]1O[C@@](C#N)(c2ccc3c(N)ncnn23)[C@H](O)[C@@H]1O	Caco-2	bidirectional permeability	–	90 µM, 120 min	apical to basolateral	recovery	97%
O=c1ccc2ccccc2o1	NHEK	cell count	–	concentration not given, 24 h, HIF1alpha, inflammation, pH panel	–	chance response	0.01%
O=C(Nc1cnccc1Cl)N1CCN(Cc2ccc3c(c2)OC(F)(F)O3)CC1	COS cells expressing human FAAH	–	–	100 nM, 3 h	–	supernatant concentration	105 ± 3.9 nM
O=NN1CC2CC(C1)c1cc3nccnc3cc12	TK6 expressing CYP3A4	–	–	12.5 µM, 4 h, without S9	baseline: vehicle	relative survival	86.5%
O=S(=O)(c1ccc(O)cc1)c1ccc(O)cc1	HepG2 spheroids, dissociated	annexin V-FITC/PI flow cytometry	–	0.01 µM, 96 h	–	late apoptotic cells	28.9 ± 11.1%
CC(C)c1ccc(C(=O)c2c(N)c(C(N)=O)c3ccccn23)cc1	THP-1-derived macrophages	–	–	10 µM, 24 h	–	viability	95.5% and 100%
O=c1[nH]c2ccccc2s1	HEK293H PPARγ-UAS-bla	cytotoxicity	–	24 h, nominal concentration	–	IC10	518 µM
CC(C)=CCc1c(O)ccc(C(=O)/C=C/c2ccc(O)cc2)c1O	Vero E6	–	–	50 µM	–	cytotoxicity	0%
COCCOCCOCCNC(=O)CSc1nc(C)cc(-c2ccccc2)c1C#N	MDA-MB-231	MTT	–	100 µM, 72 h	–	viability	39 ± 3%
O=C(Nc1cccnn1)N1CCC(=Cc2cccc(Oc3ccc(C(F)(F)F)cn3)c2)CC1	COS cells expressing human FAAH	–	COS cell culture supernatant	100 nM, 0 h	–	concentration	78 ± 3 nM
CC(C)C[C@H]1C(=O)N[C@@H](C(C)C)C(=O)N[C@@H](Cc2ccccc2)C(=O)N[C@H](CC(=O)O)C(=O)N2CCC[C@@H]2C(=O)N[C@H](CCC(=O)O)C(=O)N[C@H](C(=O)O)CSSC[C@@H](N)C(=O)N[C@@H](CCC(=O)O)C(=O)N2CCC[C@H]2C(=O)N1C	MDCK-MDR1	–	HBSS, 0.25% BSA	2 h	–	Papp A to B	0.07 ×10⁻⁶ cm/s
C=C[C@@](C)(/C=C/c1ccc(O)cc1)CCC=C(C)C	Vero E6	–	–	100 µM	–	cytotoxicity	0%
O=C(Nc1cnccc1Cl)N1CCN(Cc2ccc3c(c2)OC(F)(F)O3)CC1	COS cells expressing human FAAH	–	cell lysate	100 nM, 24 h, quantification limit 5 nM	–	compound concentration	not detected
CC(C)[C@H]1C(=O)N[C@@H](CCCN=C(N)N)C(=O)NCC(=O)N[C@@H](CC(=O)O)C(=O)N[C@H](Cc2ccccc2)C(=O)N1C	Caco-2	–	–	200 µM	baseline: Papp B-A over Papp A-B	efflux ratio	1.1
CC(C)C[C@@H](NC(=O)[C@H](C)NC(=O)CNC(=O)[C@@H](NC=O)C(C)C)C(=O)N[C@@H](C)C(=O)N[C@@H](C(=O)N[C@H](C(=O)N[C@@H](C(=O)N[C@@H](Cc1c[nH]c2ccccc12)C(=O)N[C@H](CC(C)C)C(=O)N[C@@H](Cc1cccc2cc[nH]c12)C(=O)N[C@H](CC(C)C)C(=O)N[C@@H](Cc1c[nH]c2ccccc12)C(=O)N[C@H](CC(C)C)C(=O)N[C@@H](Cc1c[nH]c2ccccc12)C(=O)NCCO)C(C)C)C(C)C)C(C)C	P388 (mouse)	cytotoxicity, WST-1	–	92 h	–	IC50	0.00238 ± 0.00053 µM
O=C(Nc1ccc(OC(F)(F)F)cc1)c1sccc1NCc1ccnc2ccccc12	human cells	–	–	–	–	CC50	4.6 µM
Oc1ccc(C(c2ccc(O)cc2)(C(F)(F)F)C(F)(F)F)cc1	HepG2 spheroids	annexin V-FITC/PI flow cytometry	–	10 µM, 96 h	–	necrotic cells	39.4 ± 14.1%

SMILES	target or system	assay	test system	setting	scale	measurement	result
COc1cc2c(Oc3ccc4[nH]c(C)cc4c3F)ccnc2cc1OCC1(N)CC1	–	–	paediatric recurrent refractory sarcoma	12 mg	–	grade 3 ALT elevation	0%
COCCOCCOCCNC(=O)c1sc2nc(-c3ccccc3)cc(C(F)(F)F)c2c1N	MDA-MB-231	MTT	–	100 µM, 72 h	–	viability	9 ± 2%
COc1ccc(C[C@@H]2c3cc(Oc4cc(C[C@@H]5c6cc(O)c(OC)cc6CCN5C)ccc4O)c(OC)cc3CCN2C)cc1	Vero E6	–	–	200 µM	–	cytotoxicity	25%
CN(C(=O)n1cnc(-c2ccc[n+]([O-])c2)c1)C1CCCCC1	COS cells expressing human FAAH	–	cell lysate	100 nM, 24 h, quantification limit 5 nM	–	compound concentration	not detected
O=C(O[C@@H]1Cc2c(O)cc(O)cc2O[C@@H]1c1cc(O)c(O)c(O)c1)c1cc(O)c(O)c(O)c1	Vero E6	–	–	25 µM	–	cytotoxicity	0%
CC(C)C[C@@H]1NC(=O)CNC(=O)[C@H]2CCCN2C(=O)[C@@H](CC(C)C)NC(=O)CNC(=O)[C@H](Cc2ccc(O)cc2)NC(=O)[C@@H](Cc2ccc(O)cc2)NC(=O)[C@@H](CCCCN)NC(=O)[C@H]([C@@H](C)O)NC(=O)[C@@H]2CCCN2C(=O)[C@H](CC(C)C)NC1=O	MDCK-MDR1	–	HBSS, 0.25% BSA	2 h	–	Papp A to B	0.6 ×10⁻⁶ cm/s
COC(=O)c1ccc(NC(=O)CCSc2nc(C)cc(C)c2C#N)cc1	MDA-MB-231	MTT	–	100 µM, 72 h	–	viability	38 ± 3%
COc1ccc(C(C)(C)c2cnc(SCCOc3ccc(-n4ccnc4)cc3)n2-c2ccc(F)cc2)cc1OC	sandwich-cultured human hepatocytes	gene induction, inducer, refers to: CYP2B6 mRNA	–	48 h	baseline: vehicle	induction Emax	4.82 fold
COc1ccc(NC(=O)CSc2nc(-c3ccccc3)cc(C(F)(F)F)c2C#N)cc1	MDA-MB-231	MTT	–	100 µM, 72 h	–	viability	61 ± 8%
CC[C@H](C)[C@@H]([C@@H](CC(=O)N1CCC[C@H]1[C@H](OC)[C@@H](C)C(=O)N[C@H](C)[C@@H](O)c1ccccc1)OC)N(C)C(=O)[C@@H](NC(=O)[C@@H](NC)C(C)C)C(C)C	SK-RC-52 (CAIX-expressing)	cell proliferation, MTS	–	72 h	–	IC50	0.0009 µM
CO[C@H]1C[C@@H]2CC[C@@H](C)[C@@](O)(O2)C(=O)C(=O)N2CCCC[C@H]2C(=O)O[C@H]([C@H](C)C[C@@H]2CC[C@@H](OC(=O)NCCOCCOCCOCCOCCOCCOCCOCCOCCC(=O)N3CCc4cc(Cn5nc(-c6ccc7oc(N)nc7c6)c6c(N)ncnc65)ccc4C3)[C@H](OC)C2)C[C@@H](O)[C@H](C)/C=C(\C)[C@@H](O)[C@@H](OC)C(=O)[C@H](C)C[C@H](C)/C=C/C=C/C=C/1C	–	–	patients with advanced solid tumours	intravenous, 16 mg weekly, any grade	–	decreased appetite incidence	25%
CC[C@H](C)[C@@H]1NC(=O)[C@H](CO)NC(=O)[C@H](CC(C)C)NC(=O)[C@H](CC(C)C)N(C)C(=O)[C@@H](Cc2ccc(O)cc2)NC(=O)[C@@H](Cc2ccc(O)cc2)NC(=O)CSC[C@@H](C(=O)O)NC(=O)CNC(=O)[C@@H](C(C)C)NC(=O)[C@H]2CCCN2C(=O)[C@H](C)NC1=O	MDCK-MDR1	–	HBSS, 0.25% BSA	2 h	–	Papp A to B	0.3 ×10⁻⁶ cm/s
CCSc1nc2ccccc2n1Cc1nnc(-c2ccc(Cl)cc2)o1	neutrophils	–	fresh heparinized human blood	200 µg/mL, 30 min	–	viability	31.1 ± 5.2%
O=C(/C=C/c1ccc(O)c(O)c1/C=C/c1ccc(O)c(O)c1)O[C@H](Cc1ccc(O)c(O)c1)C(=O)O	Vero E6	–	–	100 µM	–	cytotoxicity	0%
Cc1cc(-c2ccccc2)c(C#N)c(SCC(=O)Nc2nccs2)n1	MDA-MB-231	MTT	–	100 µM, 72 h	–	viability	44 ± 5%
COc1cc2ncnc(Oc3cccc(NC(=O)Nc4cc(C(C)(C)C(F)(F)F)on4)c3)c2cc1OC	human cells	–	–	–	–	CC50	> 20 µM
CCN(CC)CCCC(C)Nc1ccnc2cc(Cl)ccc12 (stereo not drawn)	Vero E6	–	–	with: verapamil	–	intracellular fraction	0.602
CC(C)c1cnn2c(NCc3ccccc3-n3cccn3)nc(OC3CCCNC3)nc12 (stereo not drawn)	human cells	–	–	–	–	CC50	> 20 µM
CC[C@H](C)[C@H]1C(=O)N[C@@H](CC(C)C)C(=O)N2CCC[C@H]2C(=O)N2CCC[C@@H]2C(=O)NCC(=O)N[C@@H](CC(C)C)C(=O)N[C@@H](CC(C)C)C(=O)N[C@@H](C)C(=O)N[C@@H](CO)C(=O)N[C@H]([C@H](C)O)C(=O)N[C@H](Cc2ccc(O)cc2)C(=O)N1C	MDCK-MDR1	–	HBSS, 0.25% BSA	2 h	–	Papp A to B	0.21 ×10⁻⁶ cm/s
Oc1ccc(C2(c3ccc(O)cc3)c3ccccc3-c3ccccc32)cc1	HepG2 spheroids, dissociated	annexin V-FITC/PI flow cytometry	–	10 µM, 24 h	–	viable cells	72.5 ± 3.7%
COc1cc(CNC(=O)c2sc3nc(-c4ccccc4)cc(C(F)(F)F)c3c2N)cc(OC)c1OC	MDA-MB-231	MTT	–	100 µM, 72 h	–	viability	35 ± 4%
O=C(Nc1cccnn1)N1CCC(=Cc2cccc(Oc3ccc(C(F)(F)F)cn3)c2)CC1	COS cells expressing human FAAH	–	–	100 nM, 1 h	–	supernatant concentration	72.6 ± 4.4 nM
CC(C)(c1ccc(O)cc1)c1ccc(O)cc1	HepG2 spheroids	annexin V-FITC/PI flow cytometry	–	1 µM, 96 h	–	late apoptotic cells	16.3 ± 3.47%
CC[C@H](C)CCCCC(=O)N[C@@H](CCN)C(=O)N[C@H](C(=O)N[C@@H](CCN)C(=O)N[C@H]1CCNC(=O)[C@H]([C@@H](C)O)NC(=O)[C@H](CCN)NC(=O)[C@H](CCN)NC(=O)[C@H](CC(C)C)NC(=O)[C@@H](CC(C)C)NC(=O)[C@H](CCN)NC1=O)[C@@H](C)O	Calu-3 monolayer	LC-MS/MS	–	500 µg/mL, 4 h	–	drug remaining in donor	> 90%

Repeated from above:
SMILES	target or system	assay	test system	setting	scale	measurement	result
CC(c1ccccc1)(c1ccc(O)cc1)c1ccc(O)cc1	HepG2 spheroids, dissociated	annexin V-FITC/PI flow cytometry	–	0.1 µM, 24 h	–	late apoptotic cells	8.74 ± 1.17%
COCCOCCOCCNC(=O)c1sc2nc(-c3ccccc3)cc(C(F)(F)F)c2c1N	MDA-MB-231	MTT	–	100 µM, 72 h	–	viability	9 ± 2%
O=c1ccc2ccccc2o1	NHEK	cell count	–	concentration not given, 24 h, HIF1alpha, inflammation, pH panel	–	chance response	0.01%
COc1ccc(NC(=O)CSc2nc(-c3ccccc3)cc(C(F)(F)F)c2C#N)cc1	MDA-MB-231	MTT	–	100 µM, 72 h	–	viability	61 ± 8%
CC(C)C[C@@H](NC(=O)[C@H](C)NC(=O)CNC(=O)[C@@H](NC=O)C(C)C)C(=O)N[C@@H](C)C(=O)N[C@@H](C(=O)N[C@H](C(=O)N[C@@H](C(=O)N[C@@H](Cc1c[nH]c2ccccc12)C(=O)N[C@H](CC(C)C)C(=O)N[C@@H](Cc1cccc2cc[nH]c12)C(=O)N[C@H](CC(C)C)C(=O)N[C@@H](Cc1c[nH]c2ccccc12)C(=O)N[C@H](CC(C)C)C(=O)N[C@@H](Cc1c[nH]c2ccccc12)C(=O)NCCO)C(C)C)C(C)C)C(C)C	P388 (mouse)	cytotoxicity, WST-1	–	92 h	–	IC50	0.00238 ± 0.00053 µM
